Experimental data pooled from the literature.
Protocols differ between the studies behind these lines. ± gives the spread as reported.
Sample: plasma

Structure (SMILES)	system	conditions	quantity	value
CCOC(=O)C1=C[C@@H](OC(CC)CC)[C@H](NC(C)=O)[C@@H](N)C1	healthy Indian human	oral, 75 mg single, Tamiflu reference capsule fed	elimination rate constant	5.44e-05 ± 2.83e-05 s⁻¹
CC(C)C[C@H](NC(=O)[C@H](CCc1ccccc1)NC(=O)CN1CCOCC1)C(=O)N[C@@H](Cc1ccccc1)C(=O)N[C@@H](CC(C)C)C(=O)[C@@]1(C)CO1	human patients	intravenous infusion 10 min, 27 mg/m^2, day 16 of cycle 1, KRd regimen	elimination half-life	0.0308 ± 0.0113 days
CCOc1ccc(Cc2cc([C@@H]3S[C@H](CO)[C@@H](O)[C@H](O)[C@H]3O)c(OC)cc2C)cc1	human	oral, 10 mg/day, day 7, multiple dose before breakfast	elimination rate constant	2.13e-05 ± 2.49e-06 s⁻¹
Cc1cccc(C)c1N(CC(=O)Nc1ccc(-c2ncon2)cc1)C(=O)C1CCS(=O)(=O)CC1	human male	geometric mean, added: ritonavir single dose 600 mg	elimination half-life	0.5 to 0.542 days
O=C(Nc1c(Cl)cncc1Cl)c1ccc(OC(F)F)c(OCC2CC2)c1	human adolescents	topical, 0.3% cream once daily, 14 days	elimination half-life	2.9 days
Br.Cc1ccc(Sc2ccccc2N2CCNCC2)c(C)c1	healthy humans	oral, mean, population PK model	elimination half-life	2.74 days
NCCCS(=O)(=O)O	human, both sexes	oral, 100 mg, modified-release tablet	elimination rate constant	5.07e-05 ± 2.85e-05 s⁻¹
O=C(Nc1c(Cl)c[n+]([O-])cc1Cl)c1ccc(OC(F)F)c(OCC2CC2)c1	human adults	topical, 0.3% roflumilast cream once daily, 14 days	elimination half-life	4.6 days
